Results gathered from unrelated publications.
A part holds a random share of what one study measured.

Block 1
Target: Histone acetyltransferase KAT6A, winged helix 2, GST fusion (KAT6A, Homo sapiens, UniProt Q92794, residues 85-181)
Technique: protein binding microarray
Form: double-stranded DNA, one strand shown
Medium: in vitro
Concentration: not given
Setting: 8-mer, flanks averaged, mean of 2 arrays, mostly near background
Relative to: not given
Direction: higher = stronger binding
Quantity: E-score
Target sequence (chain): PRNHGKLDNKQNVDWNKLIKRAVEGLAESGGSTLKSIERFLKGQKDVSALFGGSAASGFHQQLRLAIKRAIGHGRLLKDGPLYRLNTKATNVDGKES
CACAGCTC: 0.0536
AGACGTAC: -0.0814
CCATCTCC: 0.0718
AGTGATTG: -0.0772
AGAAGATA: -0.11
AACTCGCG: 0.111
TATGAGAA: -0.024
ACGACGTA: -0.109
CGCTTCAG: 0.208
CAGCTATA: -0.108
CTATTACA: -0.0623
AAAACGAA: 0.0561
AATTATGC: -0.0743
GAAAGTCC: -0.14
GACAAGGA: -0.0252
GGAATGCC: -0.0569
CGAATAGC: 0.0136
CGGAACAG: 0.0368
GACTCCCC: -0.0611
CCGACCAC: 0.0614
GAACCTCC: 0.138
CGTTCCTC: -0.149
AGACACAG: 0.151
TATTAATA: -0.145
GAGCGAGA: 0.125

Block 2
Target: Centromere-binding protein 1, full length, His-tagged (CBF1, Saccharomyces cerevisiae, UniProt P17106, residues 1-351)
UniProt P17106, sequence (whole entry, looked up): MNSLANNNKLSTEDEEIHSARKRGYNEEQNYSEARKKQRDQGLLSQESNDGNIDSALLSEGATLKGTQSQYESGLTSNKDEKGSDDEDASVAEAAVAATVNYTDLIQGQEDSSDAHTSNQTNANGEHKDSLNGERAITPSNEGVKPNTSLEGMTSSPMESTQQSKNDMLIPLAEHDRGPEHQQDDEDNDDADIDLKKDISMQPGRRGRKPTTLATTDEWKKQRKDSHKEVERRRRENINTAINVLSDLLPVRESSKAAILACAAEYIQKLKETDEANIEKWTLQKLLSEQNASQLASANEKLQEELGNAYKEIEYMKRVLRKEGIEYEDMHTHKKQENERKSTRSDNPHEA
Technique: competition protein-binding microarray
Form: double-stranded DNA, one strand shown
Medium: in vitro
Concentration: 2 µM
Setting: whole 60-bp probe, lowest competitor level
Together with: Pho4 competitor, 0.05 µM
Direction: higher = stronger binding
Quantity: fluorescence intensity
All sequences stand within: … GTCTTGATTCGCTTGACGCTGCTG
TGCGCAACAACTTTTCACGTGAAATTATGTCTAGAA: 1120 a.u.
TCAAGGCGGACATACTTCGTGATGGAAGCTCATGTT: 74 a.u.
GGTGTCCTCAAAGAATCTCAAGGTCCTAGCAGCTAA: 56.1 a.u.
GTCTTGTCTCATTGGCGGGTGGGTGTCCCCACTTCA: 83.7 a.u.
CTTCTGTAAATTTGTACCGTGGGTGGACGCGCCCCG: 77.4 a.u.
CGTCCTAGTGATTGTCACGTTACTTCCATGAGGAAG: 751 a.u.
CTAGACAAAGCAATTCTCATGACAAATCTACCGATT: 70.3 a.u.
AAAGCGGTAATTTGTCACGGAACTTCACATATCTAT: 88.9 a.u.
AAAATGAGATAGATACATGCGTGAGACAATTGCCTT: 71.2 a.u.
TTCTAGCGCTTCCATCACGTGCTGTGGCGCTATGGT: 4170 a.u.
CGGGGTTAAGTTTTTCACGTGCTTTGCTTGCAGCAG: 1160 a.u.
CGGGGTTAAGTTTGTCACGGAACTTGCTTGCAGCAG: 67.8 a.u.
TGCGCAACAACTTGAGCAGTGGGTGTATGTCTAGAA: 73 a.u.
AAAGCGGTAATTTGCCCGGTGGGTGCAGATATCTAT: 65.3 a.u.
CGTCCTAGTGATTGTGTAGTGGGTGCCATGAGGAAG: 96.5 a.u.
GGGCAAAACTATCCGCACGCTGAAACAGGCTGATGA: 72.7 a.u.

Block 3
Target: RNA binding protein fox-1 homolog 2, RRM domain, GST-SBP tag (RBFOX2, Homo sapiens, UniProt O43251-10, residues 100-194)
Technique: RNA Bind-n-Seq
Form: RNA
Medium: in vitro
Concentration: 365 nM
Setting: natural RNA segment, single round, ends assumed
Relative to: no-protein control
Direction: higher = stronger binding
Quantity: RBNS enrichment (R)
All sequences stand within: GGGAGUUCUACAGUCCGACGAUC … UGGAAUUCUCGGGUGCCAA
Residues (chain): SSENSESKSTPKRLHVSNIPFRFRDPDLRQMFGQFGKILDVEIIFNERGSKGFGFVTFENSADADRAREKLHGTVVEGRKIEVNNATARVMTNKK
AAUUCUACUAUGGAUGGAUGUUGUGAGCCCUUGCUUGGAAGCCUUCACCGUCUAGCUUCCCCAGGGUAGGAAAGGUCUCCCACAUUAUGCAAUAAUAAAAUCAGCAUCUG: 0.505
CUCUUCUGGUGUGUCUGAAGACAACAGUAGUGUACUCACGUAUAUGAAAUAAAUAAAUCUUAAAAAAAAAAAUAAGGUGUUAACAUGAGAAGAGGCGCUUCAAGCUCUUC: 0.464
CUGGGUGGGGUGGCAAUGGGAGGACAGGUCAGAGCGCCCUCAUUUGUGGGGCUGCCCCUCCGGGUUUCUCAUCCUGUCCUUGGUGCCUUUUUCUGCCCAACAAGUCCAGG: 0.253
CUUGUAUCACAACUAAUUUCAGCUGAGAGUUCAGCCUUGGGAGAAAGCACACCAUGGUGGGAGAGGUGUGGCAGGCAUUGCUCGAGCAUCCUGGCUCUCCCAUGCCUCCC: 1.02
CCCUUUUCCUUUGUGUACUCUAUACUGGAGUUCCCUUCUUCCUCUUGCUGUAGGCUCAAUCCCAUACCGACAUCUACAACUAAUCUUUCCCAUCAACUCUGUGUGAAGGC: 0.504
AAGCUGGUAACUCCCUCCCAGCAUCCCUGCGGAAGGAGUCAGUUUCUGAGAGUGUGACUUUUCAAGGCGAAUGAUGGGGAAGGGUUCCCCAGUCCCCACAGUGGCCCCAC: 0.909
UGAGGACGAGGAAGUUUCUGCCACUGCUUGCAGCUUUUCUGUGUGCUUUGGACUUGCUUUAGGAGGGAAAUAUAGCUUUGUAGAGAUAAAGGCUGACAUCUGGGGUCUAG: 1.07
AAAGGUAGUGGGGGCCGGUGUGGGGCAGAGUCCUGAAGAGCCACCUCUAGGAGGCAGCCCCUAGGAGCACGCACGUUCUGUCAGUAUUACCCCACCUGUCCUAUCAGGUG: 1.43
AAAUAUAGGUCAUAACUUCGGCACGACUUUAAGUACUAAGCAAUAAUGGAGUCGUCAGACGCCUCCGCUUACCGUGAACCAGUAUGAGCUUGGGAGAAAGGAACUGGAAG: 0.293
ACGUACUGCUGGUUGAAUAUCUGAGGUAAAUGAUGUUCAAUCAAGAUGCUACUUGUAUCAUUUUGCCCAUAAAUGGAUAAAUAAUUUUAUGCAUAUCAUACCAAAUGUUC: 0.325
GGAAGAAGCCUCUCCCUCUCUGUCAGCACCAGCUGGUAAAGGUGACUGUACAGAUGUGCAUUUUCCUUUUGGUAUAAAUGGUCCACAGCACUAACUGGUAAGGCUUAUUG: 1.3
UUUCACAUCACCAAAUUCCUCAUUUAUACUUGGGGAAAAAACAAGGCCAUAUGUAAAAACCCUUCCAAUGCCUAAGUGUCUUUCUCCUGCAACUCCAAACCCAGACUCGC: 0.476

Block 4
Target: Prothrombin, mature alpha-thrombin (F2, Homo sapiens, UniProt P00734)
Technique: aptamer microarray, sandwich
Form: DNA with 2'F-ANA
Medium: in vitro
Concentration: 200 nM
Setting: whole 15-mer aptamer, many near background
Together with: Cy3 exosite-II aptamer, 400 nM
Direction: higher = stronger binding
Quantity: mean fluorescence intensity
Sequence: GGTTGGTGTGGTTGG
2'F-ANA at 2 3 8 9 11 12 13 15: 857 a.u.
2'F-ANA at 1 8 13 14 15: 74.3 a.u.
2'F-ANA at 1 2 3 5 6 11 12: 173 a.u.
2'F-ANA at 1 2 3 5 6 7 8 10 11 12: 70 a.u.
2'F-ANA at 1 2 4 5 7 9 10 11 13 14 15: 48.7 a.u.
2'F-ANA at 3 4 8 11 15: 680 a.u.
2'F-ANA at 1 2 4 6 8 10: 52.8 a.u.
2'F-ANA at 2 3 5 8 9 13: 78.7 a.u.
2'F-ANA at 3 4 5 11 13 14: 49.5 a.u.
2'F-ANA at 1 2 3 5 7 10 12: 49 a.u.
2'F-ANA at 1 3 6 9 10 12 14 15: 89.4 a.u.
2'F-ANA at 1 5 12 14 15: 53.7 a.u.
2'F-ANA at 1 2 3 4 10 12 13 14 15: 75.8 a.u.
2'F-ANA at 1 2 3 6 7 8 9 11 12 13: 255 a.u.
2'F-ANA at 2 3 4 7 8 9 10 11 13: 214 a.u.
2'F-ANA at 3 4 5 6 7 11 12 13 14: 107 a.u.
2'F-ANA at 4 7 10 12 13: 105 a.u.
2'F-ANA at 2 3 5 6 8 10 11 12 15: 65.6 a.u.
2'F-ANA at 1 3 4 5 10 11 12: 46.8 a.u.
2'F-ANA at 4 6 10 13 15: 137 a.u.
2'F-ANA at 3 4 6 8 9 10 11 12 15: 222 a.u.
2'F-ANA at 1 2 4 8 9 14: 87.6 a.u.
2'F-ANA at 1 3 4 5 7 8 11 13 14: 45.8 a.u.
2'F-ANA at 3 6 7 13 15: 857 a.u.
2'F-ANA at 4 10 11 12 14: 60 a.u.

Block 5
Target: PABPC1L2, full length, GST fusion (mouse, UniProt A0ABA7IW68)
Technique: RNAcompete
Form: RNA
Medium: in vitro
Concentration: 20 nM
Setting: 7-mer, probes averaged, single round
Relative to: mean of 7-mers
Direction: higher = stronger binding
Quantity: 7-mer Z-score
Residues (chain): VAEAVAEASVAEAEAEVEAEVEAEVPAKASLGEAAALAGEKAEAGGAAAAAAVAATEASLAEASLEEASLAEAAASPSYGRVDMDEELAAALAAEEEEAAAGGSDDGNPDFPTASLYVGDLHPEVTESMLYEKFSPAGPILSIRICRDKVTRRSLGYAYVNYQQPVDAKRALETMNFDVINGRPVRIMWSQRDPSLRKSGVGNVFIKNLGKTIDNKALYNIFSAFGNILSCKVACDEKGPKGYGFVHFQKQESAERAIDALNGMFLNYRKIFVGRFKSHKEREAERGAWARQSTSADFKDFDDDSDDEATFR
UCGCGUU: -0.47
AACGACU: 0.149
GAACGAA: 0.177
UUCUAAU: -0.354
CUGAAUC: -0.322
AACCCAU: 0.166
GGGCUUA: 0.00254
GCAUGAC: 0.00979
GAUAAUG: -0.0536
GCGGCAC: 0.0696
UGGGAUA: 0.234
UCUGUGA: -0.311
CUGCCCU: -0.38
GGUGAUU: 0.0424
UUGCUCC: -0.4
UACGUCC: -0.344
CAAUACA: 0.285
CCCCAGU: -0.251

Further values, each from its own experiment
PhoQ, residues 284 288 289 292 302 303 TNSAEL — fold induction (PhoP, residues 12 14 15 18 19 NMSSL (Escherichia coli, UniProt P23836); Sort-seq, refers to: YFP reporter; E. coli; PhoQ-PhoP variant library, together with: 10 µM Mg2+; relative to: high Mg2+ state, higher = stronger signaling): 9.05
